Measured values from different studies.
Each line is one published result; not all experiments were run side by side.
Organism: Staphylococcus aureus

Structure (SMILES) | assay | test system | setting | MIC
CC(C)CNCc1cc(N(C)C)c2c(c1O)C(=O)C1=C(O)[C@]3(O)C(=O)C(C(N)=O)=C(O)[C@@H](N(C)C)[C@@H]3C[C@@H]1C2 |  | MRSA 5, Tet M ribosome protection |  | 1 µg/mL
COCO[C@H]1[C@H](O)[C@@H](N)[C@@H](O[C@H]2[C@H](O[C@@H]3O[C@H](CO)[C@@H](O[C@H]4O[C@@H](CN)[C@@H](O)[C@H](O)[C@H]4N)[C@H]3O)[C@@H](O)[C@H](N)C[C@@H]2N)O[C@@H]1CO | broth microdilution | MRSA isolate AG 045 |  | 32 µg/mL
CCc1nc(N)nc(N)c1C#CC(C)c1cc(F)cc(-c2cc(C)nc(C)c2)c1 (racemic) | broth microdilution | ATCC 43300 | 18 h, 37 °C | 0.625 µg/mL
CC1CCN(CCCN2/C(=C/c3cc(/C=C/c4c[nH]c5ccccc45)[n+](C)c4ccccc34)Sc3ccccc32)CC1 | microbial growth, broth dilution | ATCCBAA41 MRSA |  | 16 µg/mL
CC(C)C[C@H](NC(=O)[C@H](CC(N)=O)NC(=O)[C@H](CCCNC(=N)N)NC(=O)[C@@H](CC(C)C)NC(=O)[C@H](Cc1ccc(C(F)(F)F)cc1)NC(=O)[C@H](CC(=O)O)NC(=O)[C@H](CCCCN)NC(=O)[C@@H](CC(C)C)NC(=O)[C@H](CCCNC(=N)N)NC(=O)[C@H](CCC(N)=O)NC(=O)[C@@H](NC(=O)[C@@H](CC(C)C)NC(=O)[C@H](CCCNC(=N)N)NC(=O)[C@H](CCCCN)NC(=O)[C@H](Cc1ccc2ccccc2c1)NC(=O)CN)C(C)C)C(=O)N[C@H](C(N)=O)C(C)C | broth microdilution | USA300 LAC, MRSA |  | 6.2 µM
CN[C@H](CC(C)C)C(=O)N[C@H]1C(=O)N[C@@H](CC(N)=O)C(=O)N[C@H]2C(=O)N[C@H]3C(=O)N[C@H](C(=O)N[C@H](C(=O)O)c4cc(O)cc(O)c4-c4cc3ccc4O)[C@H](O)c3ccc(c(Cl)c3)Oc3cc2cc(c3O[C@@H]2O[C@H](CO)[C@@H](O)[C@H](O)[C@H]2O[C@H]2C[C@](C)(N)[C@H](O)[C@H](C)O2)Oc2ccc(cc2Cl)[C@H]1O | microbial growth, broth dilution | MRSA USA300 |  | 0.5 µg/mL
Oc1ccccc1C1Nc2ccccc2C2=[O+][Cu-2]3([Cl])[O]c4ccccc4C=[N+]3N21 (stereo not shown) | broth microdilution | ATCC 29213 | 24 h, 37 °C | 32 µg/mL
O=C1OCC(O)N1/N=C/c1ccc([N+](=O)[O-])o1 (stereo not shown) | microbial growth, broth dilution | ATCC29213 | 18 h | 1.56 µg/mL
CCCCCCCCCc1nc2cc(Cl)ccc2c(=O)n1O | broth microdilution | RN6390B |  | 50 µM
CCCCCCCCCCCCCCCCCCSCC1OC(OC2C(N)CC(N)C(OC3OC(CN)C(O)CC3N)C2O)C(O)C(N)C1O (stereo not shown) |  | methicillin-resistant |  | 18.8 µg/mL
CCCCO[C@H]1[C@H](O)[C@@H](N)[C@@H](O[C@H]2[C@H](O[C@@H]3O[C@H](CO)[C@@H](O[C@H]4O[C@@H](CN)[C@@H](O)[C@H](O)[C@H]4N)[C@H]3O)[C@@H](O)[C@H](N)C[C@@H]2N)O[C@@H]1CO | broth microdilution | MRSA isolate AG 038 |  | 8 to 16 µg/mL
CN(C)c1cc(CNC(=O)C(C)(C)C)c(O)c2c1C[C@H]1C[C@H]3[C@H](N(C)C)C(O)=C(C(N)=O)C(=O)[C@@]3(O)C(O)=C1C2=O |  | MRSA 5, Tet M ribosome protection |  | 16 µg/mL
Oc1c(Br)cc(Br)c2nc3cc(SC(F)(F)F)ccc3nc12 | broth microdilution | MRSA 1707 | 16 h, 37 °C | 0.04 µM
O=C(CCc1cc(O)c(O)c(O)c1)NCCCCCCCCCC[P+](c1ccccc1)(c1ccccc1)c1ccccc1 | microbial growth, broth dilution | ATCC43300 MRSA | 18 h | < 0.25 µg/mL
Nn1c(CCc2c[nH]c3ccccc23)nc2cc(Cl)ccc2c1=O | broth microdilution | RN6390B |  | > 100 µM
CC(C)=CCc1cc(-c2coc3cc(O)c(CC=C(C)C)c(O)c3c2=O)ccc1O |  | ATCC 25923 |  | 128 µg/mL
O=[N+]([O-])c1cccc(S(=O)(=O)NC[C@@H](O)[C@@H]2CCc3cc(F)ccc3O2)c1 | microbial growth |  |  | 10.2 µg/mL
CC(C)SC1COC(=O)N1/N=C/c1ccc([N+](=O)[O-])o1 (stereo not shown) | microbial growth, broth dilution | ATCC29213 | 18 h | 12.5 µg/mL
CCOc1ccc(NC(=O)CSc2nc3ccccc3c(=O)n2-c2ccc(S(N)(=O)=O)cc2)cc1 |  | methicillin-resistant | 24 h, 37 °C | 5 µg/mL
CCN(CC)CCCN1/C(=C/c2cc[n+](C)c3ccccc23)Sc2ccccc21 | microbial growth, broth dilution | ATCC29213 |  | 2 µg/mL
CC(C)C1=CC2=CCC3C(C)(C(=O)OCCC[N+](C)(C)C)CCCC3(C)C2CC1 (stereo not shown) | microbial growth, broth dilution | ATCC29213 | 16 h | 7.8 µg/mL
O=C(O)c1ccc(-n2cc(/C=N/Nc3cccc(Cl)c3F)c(-c3ccc4ccccc4c3)n2)cc1 | microbial growth | MRSA |  | 0.78 µg/mL

Structure (SMILES) | assay | test system | setting | MIC
CN(C)c1cc(CNC2CCCC2)c(O)c2c1C[C@H]1C[C@H]3[C@H](N(C)C)C(O)=C(C(N)=O)C(=O)[C@@]3(O)C(O)=C1C2=O | microbial growth | MRSA |  | 0.5 µg/mL
COc1cc(Cc2cnc(N)nc2N)cc(/C=C/C(=O)N2N=Cc3ccccc3C2C=C(C)C)c1OC (stereo not shown) | microbial growth, broth dilution | ATCC29213 | pH 5.8 | 0.25 to 2 µg/mL
NC[C@@H]1O[C@H](O[C@H]2[C@@H](O)[C@H](O[C@@H]3[C@@H](O)[C@H](N)C[C@H](N)[C@H]3O[C@H]3O[C@H](CO)[C@@H](OCCO)[C@H](O)[C@H]3N)O[C@@H]2CO)[C@H](N)[C@@H](O)[C@@H]1O | broth microdilution | MRSA isolate AG 044 |  | 32 to 64 µg/mL
CNC(CC(C)C)C(=O)NC1C(=O)NC(CC(N)=O)C(=O)NC2C(=O)NC3C(=O)NC(C(=O)NC(C(=O)O)c4cc(O)cc(O)c4-c4cc3ccc4O)C(O)c3ccc(c(Cl)c3)Oc3cc2cc(c3OC2OC(CO)C(O)C(O)C2OC2CC(C)(NC(=O)CCCCCCCCC[N+](C)(C)Cc3ccccc3)C(O)C(C)O2)Oc2ccc(cc2Cl)C1O (stereo not shown) | agar dilution | MRSA clinical isolate MRSA4 |  | 32 µg/mL
Cn1c(C23CC4CC(CC(C4)C2)C3)nn(CCN2CCCCC2)c1=S | two-fold dilution | IFO 3060 | 24 h, 36 °C | 1 µg/mL
CC1C=CC=CC(C)C2C=CC3CC(C)(Cl)C(O)C(C)C3C2C(=O)C(Cl)(Cl)C(=O)C(C)C(=O)O1 (stereo not shown) | microbial growth, broth dilution | NEWMAN |  | 0.05 µg/mL
CCCCCCCCCCN1C(=O)/C(=N\NC(=N)N)c2cc(C)ccc21 | microbial growth, broth dilution |  | 18 h | 3 µg/mL
CNC(CC(C)C)C(=O)NC1C(=O)NC(CC(N)=O)C(=O)NC2C(=O)NC3C(=O)NC(C(=O)NC(C(=O)O)c4cc(O)cc(O)c4-c4cc3ccc4O)C(O)c3ccc(c(Cl)c3)Oc3cc2cc(c3OC2OC(CO)C(O)C(O)C2OC2CC(C)(NC(=O)CCCC[N+](C)(C)Cc3ccccc3)C(O)C(C)O2)Oc2ccc(cc2Cl)C1O (stereo not shown) | agar dilution | MRSA clinical isolate MRSA3 |  | 512 µg/mL
CN(C)c1cc(CNCc2ccncc2)c(O)c2c1C[C@H]1C[C@H]3[C@H](N(C)C)C(O)=C(C(N)=O)C(=O)[C@@]3(O)C(O)=C1C2=O |  | RN4250, Tet K efflux |  | 4 µg/mL
C=C(NC(=O)C(=C)NC(=O)c1csc(C2=NC3c4csc(n4)C4NC(=O)c5csc(n5)C(C(C)(O)C(C)O)NC(=O)C5CSC(=N5)C(=CC)NC(=O)C(C(C)O)NC(=O)c5csc(n5)C3(CC2)NC(=O)C(C)NC(=O)C(=C)NC(=O)C(CCSC)NC(=O)C(C(C)CC)NC2C=Cc3c(C(C)O)cc(nc3C2O)C(=O)OC4C)n1)C(N)=O (stereo not shown) | broth microdilution | ATCC 10537 MRSA | 18 h, 37 °C | 0.014 µg/mL
COc1ccccc1C(=O)c1[nH]c(Cl)c(Cl)c1-n1c(C(=O)c2ccccc2OC)cc(Cl)c1Cl | microbial growth, broth dilution | NCTC8325 | 20 h | 8 µg/mL
CN(C)c1cc(CNCc2ccccc2)c(O)c2c1C[C@H]1C[C@H]3[C@H](N(C)C)C(O)=C(C(N)=O)C(=O)[C@@]3(O)C(O)=C1C2=O |  | RN4250, Tet K efflux |  | 0.5 µg/mL
Oc1c(Br)ccc2cccnc12 | microbial growth, agar dilution | ATCC29213 |  | 35.7 µM
Oc1c(Br)cc(Br)c2nc3cc(Cc4ccccc4)ccc3nc12 | broth microdilution | MRSA 44 |  | 0.2 µM
C/C(=N\Nc1nc(-c2ccc(Cl)cc2)cs1)c1ccc2c(c1)sc1nc(=O)c(C#N)cn12 | broth microdilution |  |  | < 35 µg/mL
CCC1(C)CCN(Cc2cc(N(C)C)c3c(c2O)C(=O)C2=C(O)[C@]4(O)C(=O)C(C(N)=O)=C(O)[C@@H](N(C)C)[C@@H]4C[C@@H]2C3)CC1 |  | MRSA 5, Tet M ribosome protection |  | 1 µg/mL
O=C1c2ccccc2C(=O)c2c1ccc1c2C(C(=O)Nc2ccccc2)C(=O)C1c1ccccc1 (stereo not shown) | microbial growth |  |  | 64 µg/mL
CN(C)c1cc(CNC(=O)OCC(C)(C)C)c(O)c2c1C[C@H]1C[C@H]3[C@H](N(C)C)C(O)=C(C(N)=O)C(=O)[C@@]3(O)C(O)=C1C2=O |  | RN4250, Tet K efflux |  | 2 µg/mL
NC[C@@H]1O[C@H](O[C@H]2[C@@H](O)[C@H](O[C@@H]3[C@@H](O)[C@H](N)C[C@H](N)[C@H]3O[C@H]3O[C@H](CO)[C@@H](SCCF)[C@H](O)[C@H]3N)O[C@@H]2CO)[C@H](N)[C@@H](O)[C@@H]1O |  | methicillin-resistant |  | 8 µg/mL
CN(C)c1cc(CN2CCc3ccccc3C2)c(O)c2c1C[C@H]1C[C@H]3[C@H](N(C)C)C(O)=C(C(N)=O)C(=O)[C@@]3(O)C(O)=C1C2=O |  | MRSA 5, Tet M, 50% human serum |  | > 64 µg/mL
CNC(CC(C)C)C(=O)NC1C(=O)NC(CC(N)=O)C(=O)NC2C(=O)NC3C(=O)NC(C(=O)NC(C(=O)O)c4cc(O)cc(O)c4-c4cc3ccc4O)C(O)c3ccc(c(Cl)c3)Oc3cc2cc(c3OC2OC(CO)C(O)C(O)C2OC2CC(C)(NC(=O)CCCCCC[N+](C)(C)C)C(O)C(C)O2)Oc2ccc(cc2Cl)C1O (stereo not shown) | agar dilution | MRSA clinical isolate MRSA3 |  | 64 µg/mL

Excerpt of the above:
Structure (SMILES) | assay | test system | setting | MIC
CCC1(C)CCN(Cc2cc(N(C)C)c3c(c2O)C(=O)C2=C(O)[C@]4(O)C(=O)C(C(N)=O)=C(O)[C@@H](N(C)C)[C@@H]4C[C@@H]2C3)CC1 |  | MRSA 5, Tet M ribosome protection |  | 1 µg/mL
O=C1c2ccccc2C(=O)c2c1ccc1c2C(C(=O)Nc2ccccc2)C(=O)C1c1ccccc1 (stereo not shown) | microbial growth |  |  | 64 µg/mL
CN(C)c1cc(CNC(=O)OCC(C)(C)C)c(O)c2c1C[C@H]1C[C@H]3[C@H](N(C)C)C(O)=C(C(N)=O)C(=O)[C@@]3(O)C(O)=C1C2=O |  | RN4250, Tet K efflux |  | 2 µg/mL
NC[C@@H]1O[C@H](O[C@H]2[C@@H](O)[C@H](O[C@@H]3[C@@H](O)[C@H](N)C[C@H](N)[C@H]3O[C@H]3O[C@H](CO)[C@@H](SCCF)[C@H](O)[C@H]3N)O[C@@H]2CO)[C@H](N)[C@@H](O)[C@@H]1O |  | methicillin-resistant |  | 8 µg/mL
CN(C)c1cc(CN2CCc3ccccc3C2)c(O)c2c1C[C@H]1C[C@H]3[C@H](N(C)C)C(O)=C(C(N)=O)C(=O)[C@@]3(O)C(O)=C1C2=O |  | MRSA 5, Tet M, 50% human serum |  | > 64 µg/mL
CNC(CC(C)C)C(=O)NC1C(=O)NC(CC(N)=O)C(=O)NC2C(=O)NC3C(=O)NC(C(=O)NC(C(=O)O)c4cc(O)cc(O)c4-c4cc3ccc4O)C(O)c3ccc(c(Cl)c3)Oc3cc2cc(c3OC2OC(CO)C(O)C(O)C2OC2CC(C)(NC(=O)CCCCCC[N+](C)(C)C)C(O)C(C)O2)Oc2ccc(cc2Cl)C1O (stereo not shown) | agar dilution | MRSA clinical isolate MRSA3 |  | 64 µg/mL
